# Measured values collected from several papers.
# Protocols differ between the studies behind these lines. Values joined by “and” are separate records of one study, mostly repeats; a detail may differ. ± marks the error that the study gave.
# CA2: Carbonic anhydrase 2 (CA2, Bos taurus, UniProt P00921)
# Sequence of UniProt P00921 (whole entry, looked up): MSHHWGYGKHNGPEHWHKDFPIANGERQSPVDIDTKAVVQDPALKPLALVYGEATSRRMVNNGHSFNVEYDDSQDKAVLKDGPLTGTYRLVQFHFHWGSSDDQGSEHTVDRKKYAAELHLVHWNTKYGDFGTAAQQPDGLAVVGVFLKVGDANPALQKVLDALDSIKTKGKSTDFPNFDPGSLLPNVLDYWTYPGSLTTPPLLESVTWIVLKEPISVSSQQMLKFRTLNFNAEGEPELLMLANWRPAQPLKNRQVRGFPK
# KAI2: KAI2 (Arabidopsis thaliana, UniProt Q9SZU7)
# Sequence of UniProt Q9SZU7 (whole entry, looked up): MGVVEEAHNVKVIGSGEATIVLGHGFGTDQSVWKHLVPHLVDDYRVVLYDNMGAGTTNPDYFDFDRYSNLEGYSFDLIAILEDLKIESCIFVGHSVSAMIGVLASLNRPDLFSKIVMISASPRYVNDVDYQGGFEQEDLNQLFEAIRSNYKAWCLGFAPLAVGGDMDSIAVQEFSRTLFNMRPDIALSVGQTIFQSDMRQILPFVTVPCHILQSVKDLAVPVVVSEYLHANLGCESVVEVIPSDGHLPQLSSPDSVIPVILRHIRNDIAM
# FKBP5: Peptidyl-prolyl cis-trans isomerase FKBP5 (FKBP5, Homo sapiens, UniProt Q13451)
# Sequence of UniProt Q13451 (whole entry, looked up): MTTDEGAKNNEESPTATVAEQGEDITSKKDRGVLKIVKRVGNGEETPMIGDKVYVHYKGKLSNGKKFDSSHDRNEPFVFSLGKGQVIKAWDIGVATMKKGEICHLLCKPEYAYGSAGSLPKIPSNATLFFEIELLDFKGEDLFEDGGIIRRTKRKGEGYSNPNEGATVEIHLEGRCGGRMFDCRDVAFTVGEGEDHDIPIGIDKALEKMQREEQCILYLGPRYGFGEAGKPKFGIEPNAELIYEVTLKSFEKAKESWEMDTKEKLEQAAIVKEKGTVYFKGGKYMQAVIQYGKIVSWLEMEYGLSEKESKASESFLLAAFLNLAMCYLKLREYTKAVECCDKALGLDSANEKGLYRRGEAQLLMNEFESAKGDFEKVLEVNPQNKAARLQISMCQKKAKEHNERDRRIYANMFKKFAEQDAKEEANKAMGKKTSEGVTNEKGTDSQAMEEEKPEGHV
# Sequence of UniProt P11086 (whole entry, looked up): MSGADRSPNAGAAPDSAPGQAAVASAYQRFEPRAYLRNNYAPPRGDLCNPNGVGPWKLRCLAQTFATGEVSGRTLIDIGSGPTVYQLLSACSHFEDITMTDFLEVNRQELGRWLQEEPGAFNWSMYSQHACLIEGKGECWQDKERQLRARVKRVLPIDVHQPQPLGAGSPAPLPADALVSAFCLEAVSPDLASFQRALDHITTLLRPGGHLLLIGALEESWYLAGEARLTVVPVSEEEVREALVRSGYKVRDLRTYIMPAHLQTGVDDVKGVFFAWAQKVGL
# Sequence of UniProt P02716 (whole entry, looked up): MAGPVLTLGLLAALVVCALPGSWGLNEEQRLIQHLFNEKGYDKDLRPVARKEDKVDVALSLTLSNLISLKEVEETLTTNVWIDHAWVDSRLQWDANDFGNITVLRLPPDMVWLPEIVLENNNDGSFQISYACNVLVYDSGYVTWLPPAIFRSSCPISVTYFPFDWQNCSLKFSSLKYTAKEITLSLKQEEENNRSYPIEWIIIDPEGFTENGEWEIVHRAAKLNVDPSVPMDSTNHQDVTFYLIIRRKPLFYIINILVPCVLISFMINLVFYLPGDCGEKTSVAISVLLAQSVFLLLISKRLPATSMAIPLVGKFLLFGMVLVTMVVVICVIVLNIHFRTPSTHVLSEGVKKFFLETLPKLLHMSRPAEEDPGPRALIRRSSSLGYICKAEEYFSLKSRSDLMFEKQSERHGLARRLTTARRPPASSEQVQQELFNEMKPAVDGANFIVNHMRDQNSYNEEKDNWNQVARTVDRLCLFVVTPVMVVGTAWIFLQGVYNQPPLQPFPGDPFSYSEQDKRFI
# Sequence of UniProt P17706 (whole entry, looked up): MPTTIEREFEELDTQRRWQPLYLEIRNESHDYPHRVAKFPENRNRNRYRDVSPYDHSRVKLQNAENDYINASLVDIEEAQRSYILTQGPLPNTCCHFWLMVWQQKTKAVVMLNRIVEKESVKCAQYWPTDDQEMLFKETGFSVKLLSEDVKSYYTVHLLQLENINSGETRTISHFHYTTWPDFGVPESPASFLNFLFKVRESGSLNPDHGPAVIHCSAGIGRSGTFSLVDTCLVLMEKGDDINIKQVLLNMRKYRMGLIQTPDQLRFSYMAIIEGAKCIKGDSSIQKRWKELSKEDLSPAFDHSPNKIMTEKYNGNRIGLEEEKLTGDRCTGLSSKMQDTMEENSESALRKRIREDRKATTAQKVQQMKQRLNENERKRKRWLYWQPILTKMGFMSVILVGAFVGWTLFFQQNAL
# Sequence of UniProt Q91XB0 (whole entry, looked up): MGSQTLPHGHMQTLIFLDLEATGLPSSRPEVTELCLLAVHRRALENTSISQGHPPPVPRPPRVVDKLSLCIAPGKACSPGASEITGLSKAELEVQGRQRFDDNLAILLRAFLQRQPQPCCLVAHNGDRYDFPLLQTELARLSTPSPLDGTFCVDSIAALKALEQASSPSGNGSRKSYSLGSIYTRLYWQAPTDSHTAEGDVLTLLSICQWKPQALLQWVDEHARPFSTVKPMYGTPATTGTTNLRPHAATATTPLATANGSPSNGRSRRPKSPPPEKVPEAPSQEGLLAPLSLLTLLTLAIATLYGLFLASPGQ
# Sequence of UniProt Q70CQ1 (whole entry, looked up): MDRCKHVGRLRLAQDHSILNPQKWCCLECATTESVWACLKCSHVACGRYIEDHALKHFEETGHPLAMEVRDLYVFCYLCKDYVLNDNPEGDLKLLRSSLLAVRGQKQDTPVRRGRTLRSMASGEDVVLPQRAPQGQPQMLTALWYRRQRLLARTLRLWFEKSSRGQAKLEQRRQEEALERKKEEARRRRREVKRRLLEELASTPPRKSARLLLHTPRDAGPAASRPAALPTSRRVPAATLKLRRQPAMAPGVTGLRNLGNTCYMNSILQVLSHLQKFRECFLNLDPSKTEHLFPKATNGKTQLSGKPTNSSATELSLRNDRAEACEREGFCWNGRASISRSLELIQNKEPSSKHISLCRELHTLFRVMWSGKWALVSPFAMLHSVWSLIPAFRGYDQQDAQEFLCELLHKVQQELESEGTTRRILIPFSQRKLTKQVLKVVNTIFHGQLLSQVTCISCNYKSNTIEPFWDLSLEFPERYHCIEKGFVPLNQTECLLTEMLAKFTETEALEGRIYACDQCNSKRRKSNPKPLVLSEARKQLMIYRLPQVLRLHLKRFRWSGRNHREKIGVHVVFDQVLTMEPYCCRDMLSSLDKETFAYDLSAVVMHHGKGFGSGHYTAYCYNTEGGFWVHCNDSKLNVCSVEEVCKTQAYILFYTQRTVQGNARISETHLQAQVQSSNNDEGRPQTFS
# Sequence of UniProt P20782 (whole entry, looked up): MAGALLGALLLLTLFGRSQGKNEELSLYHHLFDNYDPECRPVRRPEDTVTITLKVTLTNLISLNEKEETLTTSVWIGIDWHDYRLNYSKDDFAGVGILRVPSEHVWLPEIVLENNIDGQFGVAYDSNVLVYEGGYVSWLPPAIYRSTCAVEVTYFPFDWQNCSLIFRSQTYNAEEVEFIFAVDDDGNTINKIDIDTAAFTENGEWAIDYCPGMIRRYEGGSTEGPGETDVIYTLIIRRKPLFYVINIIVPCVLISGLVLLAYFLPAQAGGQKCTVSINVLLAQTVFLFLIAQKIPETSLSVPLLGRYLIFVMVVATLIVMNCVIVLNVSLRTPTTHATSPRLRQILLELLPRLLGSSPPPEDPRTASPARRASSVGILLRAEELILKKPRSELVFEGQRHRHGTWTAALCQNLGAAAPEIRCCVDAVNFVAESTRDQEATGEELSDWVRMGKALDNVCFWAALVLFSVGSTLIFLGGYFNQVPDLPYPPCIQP
# Sequence of UniProt Q9NRM7 (whole entry, looked up): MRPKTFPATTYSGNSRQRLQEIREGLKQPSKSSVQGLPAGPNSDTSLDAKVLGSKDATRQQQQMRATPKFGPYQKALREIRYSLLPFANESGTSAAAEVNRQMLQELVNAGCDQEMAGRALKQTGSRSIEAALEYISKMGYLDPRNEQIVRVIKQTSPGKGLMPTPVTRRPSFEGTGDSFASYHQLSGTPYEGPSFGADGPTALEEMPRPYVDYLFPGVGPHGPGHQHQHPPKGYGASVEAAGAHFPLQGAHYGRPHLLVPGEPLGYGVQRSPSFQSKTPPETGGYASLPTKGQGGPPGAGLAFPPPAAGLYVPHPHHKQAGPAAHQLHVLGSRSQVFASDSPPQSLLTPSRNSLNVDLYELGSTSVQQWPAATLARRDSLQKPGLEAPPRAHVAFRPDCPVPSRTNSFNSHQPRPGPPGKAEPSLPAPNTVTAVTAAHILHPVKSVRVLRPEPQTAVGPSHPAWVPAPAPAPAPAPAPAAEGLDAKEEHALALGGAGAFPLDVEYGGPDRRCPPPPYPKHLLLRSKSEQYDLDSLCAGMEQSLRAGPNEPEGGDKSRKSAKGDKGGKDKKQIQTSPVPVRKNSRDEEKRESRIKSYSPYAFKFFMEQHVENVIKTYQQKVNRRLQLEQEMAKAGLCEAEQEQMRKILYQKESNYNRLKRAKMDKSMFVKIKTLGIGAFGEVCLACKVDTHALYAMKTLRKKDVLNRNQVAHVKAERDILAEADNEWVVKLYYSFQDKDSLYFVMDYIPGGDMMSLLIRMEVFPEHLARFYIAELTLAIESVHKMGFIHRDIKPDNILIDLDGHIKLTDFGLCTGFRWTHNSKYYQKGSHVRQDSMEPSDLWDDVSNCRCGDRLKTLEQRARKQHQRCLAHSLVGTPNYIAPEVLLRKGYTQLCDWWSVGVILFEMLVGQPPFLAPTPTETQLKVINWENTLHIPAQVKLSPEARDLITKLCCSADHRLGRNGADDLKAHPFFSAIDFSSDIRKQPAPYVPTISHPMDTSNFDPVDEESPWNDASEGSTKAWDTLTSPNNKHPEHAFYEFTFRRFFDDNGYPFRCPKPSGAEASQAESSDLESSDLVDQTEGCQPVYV
Compound,target,test,test system,conditions,Kd
NS(=O)(=O)c1ccc(CCN2C(=O)c3ccc(N4CCOCC4)cc3C2=O)cc1,CA2,binding,,,0.37 µM
CN(C)c1ccc(/C=C/c2cc(/C=C3\Sc4ccccc4N3CCCN3CCCC3)c3ccccc3[n+]2C)cc1,VEGF DNA,isothermal titration calorimetry,,"pH 7.4, 25 °C, 2% DMSO",16.6 µM
CCN(CC)C(=O)c1cnn2ccc(C3CCN(S(=O)(=O)c4ccc(NC(C)=O)cc4)CC3)cc12,"Inactive tyrosine-protein kinase PRAG1 (PRAG1, Homo sapiens, UniProt Q86YV5)",binding,,,0.89 ± 0.07 µM
Nc1ncnc2c1ncn2C1OC(CN(CCCC2CNCc3c2ccc(Cl)c3Cl)CCC(N)C(=O)O)C(O)C1O (mixture of isomers),"Phenylethanolamine N-methyltransferase (PNMT, Homo sapiens, UniProt P11086)",ITC,,"pH 8.0, 25 °C, second site, without SAH",0.282 ± 0.003 µM
O=C(O)c1cc(C(=O)CC(=O)c2cc(C(=O)O)c(O)c3ccccc23)c2ccccc2c1O,"Three-prime repair exonuclease 1 (Trex1, Mus musculus, UniProt Q91XB0)","binding, fluorescence",,,19.6 µM
O=C(N1CCc2ccccc21)n1ccnc1,KAI2,ITC,,mean of replicates,106 µM
Cc1c[nH]c2nccc(-c3ccc(C(=O)N[C@@H]4c5c(F)cc(C(F)F)cc5C[C@@H]4O)cn3)c12,"Serine/threonine-protein kinase LATS2 (LATS2, Homo sapiens, UniProt Q9NRM7)","binding, competition with immobilised ligand",,,0.14 µM
Nc1ncc(-c2nc(N3CCOCC3)nc(N3CCOCC3)n2)c(C(F)F)n1,"Serine/threonine-protein kinase mTOR (MTOR, Homo sapiens, UniProt P42345)","binding, competition with immobilised ligand",,,0.022 µM
CC(C)(C)n1cc(CN(Cc2cn(CC(=O)O)nn2)Cc2cn(C(C)(C)C)nn2)nn1,Cu(I),"binding, bicinchoninic acid competition",,"3000 µM, with: bicinchoninic acid 40 µM",0.000135 µM
NS(=O)(=O)c1nnc(N2C(=O)c3cccc4c(N5CCOCC5)ccc(c34)C2=O)s1,CA2,binding,,,0.2 µM
Cc1cccc2c1N(C(=O)n1ccnn1)CC2,KAI2,ITC,,wild-type protein,28.2 µM and 26.9 µM and 27.9 µM
C[N+](C)(C)CCOC(N)=O,"Chrnd/Chrna1/Chrne (Mus musculus, UniProt P02716+P04756+P20782)",single-channel kinetics,,wild-type receptor,410 µM
O=C(c1ccco1)N1CCc2ccccc21,KAI2,ITC,,mean of replicates,240 µM
C=CCN=S(=O)(c1cc(Cl)cc(Cl)c1)N1C2CCCC1C(C=C)CN(Cc1ccccn1)C2=O (centres unmarked),FKBP5,"ligand displacement, FP",,,> 40 µM
CNC[C@H](O)c1cccc(O)c1,"chemotaxis protein CheW (Vibrio campbellii, UniProt A0A0A3EMQ5)","binding, microscale thermophoresis",PBS with 0.05% Tween 20,"room temperature, His-tagged protein, labelled",0.3 ± 0.25 µM
O=C(N1CCc2cccc([N+](=O)[O-])c21)n1ccnn1,KAI2,isothermal titration calorimetry,,,709 µM and 667 µM and 758 µM
O=C(O)CCC(=O)c1cccc(NS(=O)(=O)c2c[nH]c3ncccc23)c1,"Ubiquitin carboxyl-terminal hydrolase 49, ZnF-UBD domain (USP49, Homo sapiens, UniProt Q70CQ1)",,,,> 1000 µM
CN(C)c1ccc2c(c1)C(=O)N(CCc1ccc(OS(N)(=O)=O)cc1)C2=O,CA2,binding,,,0.16 µM
C=C[C@H]1CN(Cc2ccccn2)C(=O)[C@@H]2CCC[C@H]1N2[S@@+]([O-])c1cc(Cl)cc(Cl)c1,FKBP5,"ligand displacement, FP",,,4.78 µM
O=C(N1CCc2cccc(F)c21)n1ccnn1,KAI2,"binding, ITC",,,164 µM
CC1(C)C[C@@H](Nc2cccc(-c3sc(C(=O)O)c(OCC(=O)O)c3Cl)c2)CCN1S(=O)(=O)Cc1cccc(NC(=O)CN2CCC(c3ccc4c(c3)oc(=O)n4C3CCC(=O)NC3=O)CC2)c1 (some centres unmarked),"Tyrosine-protein phosphatase non-receptor type 2 (PTPN2, Homo sapiens, UniProt P17706)","binding, BLI",,,0.085 µM
CC(C)(C)n1cc(CN(Cc2cn(CCOCCOCCOCCOCCOCCO)nn2)Cc2cn(C(C)(C)C)nn2)nn1,Cu(I),"binding, bicinchoninic acid competition",,"4000 µM, with: bicinchoninic acid 40 µM",0.00023 µM
O=C(N1CCc2cccc(Cl)c21)n1ccnn1,KAI2,isothermal titration calorimetry,,,166 µM and 192 µM
C=CC1CN(Cc2ccccn2)C(=O)C2CCCC1N2S(=O)(=Nc1ccccc1)c1cc(Cl)cc(Cl)c1 (centres unmarked),FKBP5,"ligand displacement, FP",,,> 40 µM
Cc1cccc2c1N(C(=O)n1ccnc1)CC2,KAI2,isothermal titration calorimetry,,,14.7 µM and 15.2 µM
C=CC(=O)N1CC2(CCN(c3nc(OC4CCN(CCCOC)CC4)nc4c(OCC(F)(F)F)c(-c5c(C)ccc6[nH]ncc56)c(C5CC5)cc34)CC2)C1,"GTPase KRas, GDP-bound (KRAS, Homo sapiens, UniProt P01116, G12V)",SPR,,,40.7 ± 1.5 µM
NS(=O)(=O)c1ccc(CN2C(=O)c3ccc(N4CCOCC4)cc3C2=O)cc1,CA2,binding,,,0.3 µM
C=CC(=O)N1C[C@H](C)N(c2nc(OC[C@@]34CCCN3C[C@H](F)C4)nc3c(F)c(-c4ccc(F)c5sc(N)c(C#N)c45)c(C(F)(F)F)cc23)C[C@H]1C,"GTPase KRas, GppNHp-bound (KRAS, Homo sapiens, UniProt P01116)",SPR kinetic fit,,GppNHp-bound wild type,12.4 ± 1 µM
O=C(N1CCc2ccccc21)n1ccnn1,KAI2,isothermal titration calorimetry,,,207 µM and 192 µM
